Measured values from different studies.
Numbered parts are unrelated; each lists some results of a single study. Substitutions count along the parent as printed.

Set 1
Target: CCNB1, cyclin fold, Cln2 fusion (human)
Method: yeast growth competition, sequencing
Matrix: yeast
Notes: weak parent motif
Baseline: not given
Reading: higher = stronger binding
Parent: CDC25A docking peptide (human); PPHRRRLLFACSP
| Variant | normalised enrichment score |
| --- | --- |
| PPHRRRLLFACEP [S12E] | 1.02 |
| PPHRRRLFFACSP [L8F] | 0.23 |
| PPHRRRLLFAKSP [C11K] | -0.0924 |
| PPHRRRLLFACWP [S12W] | 0.934 |
| PKHRRRLLFACSP [P2K] | 0.781 |

Set 2
Target: XBP1, bZIP domain (human)
Method: DHFR protein complementation
Matrix: yeast
Notes: single substitutions, most at no-binding floor
Baseline: wild-type JUN-FOS pair
Reading: higher = stronger binding
Parent: JUN, bZIP domain (human); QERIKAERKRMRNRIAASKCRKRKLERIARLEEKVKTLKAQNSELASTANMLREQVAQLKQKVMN; partner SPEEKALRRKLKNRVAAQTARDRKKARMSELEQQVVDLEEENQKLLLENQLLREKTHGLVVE
| Variant | binding fitness |
| --- | --- |
| V56G | -1.23 natural log |
| L38P | -1.51 natural log |
| E32Q | -1.26 natural log |
| L38C | -1.5 natural log |
| E54N | -1.27 natural log |

Set 3
Target: RING finger protein unkempt homolog, zinc fingers 1-6, GST-SBP tag (UNK, Homo sapiens, UniProt Q9C0B0, residues 30-357)
Chain of UniProt Q9C0B0 (30-357, looked up): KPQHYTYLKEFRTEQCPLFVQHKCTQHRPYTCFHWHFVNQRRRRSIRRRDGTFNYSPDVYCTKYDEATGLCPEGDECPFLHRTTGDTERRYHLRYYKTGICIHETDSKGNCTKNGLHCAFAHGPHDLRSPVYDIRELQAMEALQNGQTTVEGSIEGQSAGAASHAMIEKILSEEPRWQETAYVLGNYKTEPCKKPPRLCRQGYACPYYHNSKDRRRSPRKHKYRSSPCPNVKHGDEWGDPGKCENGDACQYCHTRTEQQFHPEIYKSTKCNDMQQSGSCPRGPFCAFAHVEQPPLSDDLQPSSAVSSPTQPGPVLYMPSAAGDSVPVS
Method: RNA Bind-n-Seq
Molecule type: RNA
Matrix: in vitro
Concentration: not given
Notes: RNA with constant flanks, human and mouse sites, ends assumed
Baseline: input RNA pool
Reading: higher = stronger binding
Shared flanks, not repeated: GGGAGUUCUACAGUCCGACGAUC … CAACAGAGGAUUGAGCAUCA
| Strand | bound/input enrichment |
| --- | --- |
| GAGAUGACGCUGGCCCAGCUAUUUCUACAGUCUGAAGCUGCUUAUUGCUGUGUCAGUGAAUUAGGAGAGCUUGGGAAGGUCCAAUUUCGGGAUUUAAAUCCAGAUGUGAAUGUUUUCCAG | 0.172 ratio |
| CUGAGAGAGCUGACAUCCCAGCAUCCUUACGCUGAAGUUUUCAUCGGGCGGCCACAUGUGUGGACUGUUGACCUCAACAAUCAGGAGGAAGUAGAGGAUGCAGUGAAAGCAAUUUUAAAU | 0.238 ratio |
| AGUGACUUAUCUGAGAAUGUAGAGUCAGUGGUUAAUGAAGAAAAAAUAACAGAGAGUUCCCUAGUAGAAAUUACUGAACAUAAAGAUUUUACACUAAAAACAGAGGAGCUUAUAGAGAGC | 2.85 ratio |
| CUGUAGUCCUCAGAAAGGAAGCUCCAGGACAUUUCAUGACUAUAAUGCAUGCACUAUUUAUAUAGACUGACCUGGCUUUAAAAGAUGGAGCCUGGCAAGUUCCUCACAUAAUCAAUGUAU | 0.145 ratio |
| UUGUGGUGCCAGAGAAAAGUAGCCAGAGCGGCGCAGUGGCGGCCGCGUUCUGUGGUUUUCCGCUAUUCCCCCAGACCCGCACCUUCUCGGCCUCUUUGCGGAGAAUCGUGACCAAGAUGU | 0.235 ratio |
| AGGCGGAGAGAACUGGCACUCUUCUCGGAUGACCGUUCACGGACAGUACAAUACCACAUAUAUAGUGUACACACACAUACAAAUGUGUCGAUGCCCAUUCACAAACAGUACAGUACACGC | 0.142 ratio |
| AGUUAUGACGGUAUAAAGCUUGAGCCUGAAAAUCCCCCACCAUAUGAAGAAGCCAUGAGUGUAGCACUAAAAACAUCGGACUCAAAGGAAGAAAUUAAAGAGCCUGAAAGUUUUAAUGCA | 0.284 ratio |

Single results of other studies
| Substance | target | assay | system | setting | how to read | measurement | value |
| --- | --- | --- | --- | --- | --- | --- | --- |
| PhoQ, residues 284 288 289 292 302 303 AGHLVA | PhoP, residues 12 14 15 18 19 AWHSL (Escherichia coli, UniProt P23836) | Sort-seq, measured: YFP reporter | E. coli | PhoQ-PhoP variant library, with: 10 µM Mg2+ | baseline: high Mg2+ state, higher = stronger signaling | fold induction | 1.36 |
